Measurements collected from several papers.
Compare with care: the assays were run in different laboratories. Numbers after ± are the reported error.

Structure (SMILES)	assay	system	conditions	tissue uptake
O=C(O)CCC(NP(=O)(O)OCCC[C@@H](NC(=O)CC[C@H](NC(=O)CCCCCNC(=O)c1ccc([18F])cc1)C(=O)O)C(=O)O)C(=O)O (stereo partly drawn)	–	mouse, CWR22Rv1 xenograft, muscle	dose not given, 4 h, blocking agent pre-dosed	0.013 ± 0.002 %ID/g
CC(C)[C@H](NC(=O)[C@@H]1CCCN1C(=O)[C@H](CCCNC(=N)N)NC(=O)[C@H](CS)NC(=O)[C@H](Cc1c[nH]c2ccccc12)NC(=O)[C@H](CCCNC(=N)N)NC(=O)[C@@H](Cc1ccccc1)NC(=O)[C@H](Cc1c[nH]cn1)NC(=O)[C@H](CCC(=O)O)NC(=O)[C@H](CS)NC(=O)[C@H](CS)NC(=O)COCCOCCNC(=O)[C@@H]1CC(=O)N[C@@H](CCCNC(=N)N)C(=O)NCC(=O)N[C@@H](CC(=O)O)C(=O)N[C@H](Cc2ccc(O)cc2)C(=O)N1)C(N)=O [technetium-99m labelled]	–	nude mouse, M21 melanoma xenograft, brain	intravenous, 2 h	0.02 ± 0.01 %ID/g
CN(C(=O)Cn1c(=O)oc2ccc(-c3ccc(OCC[18F])cc3)cc21)c1ccccc1	–	male ddY mouse, femur	intravenous, 1.85 MBq, early phase after injection	~3.8 %ID/g
CN(C)c1ccc(-c2nc3ccc(OCCCCCN4CCN5CCN(CC4)CC(=O)[O][Al]([18F])[O]C(=O)C5)cc3s2)cc1	–	ICR mouse, kidney	intravenous, 2 min	14.1 ± 1.82 %ID/g
CC(C)[C@H](NC(=O)[C@@H]1CCCN1C(=O)[C@H](CCCNC(=N)N)NC(=O)[C@H](CS)NC(=O)[C@H](Cc1c[nH]c2ccccc12)NC(=O)[C@H](CCCNC(=N)N)NC(=O)[C@@H](Cc1ccccc1)NC(=O)[C@H](Cc1c[nH]cn1)NC(=O)[C@H](CCC(=O)O)NC(=O)[C@H](CS)NC(=O)[C@H](CS)NC(=O)CNC(=O)[C@@H]1CC(=O)N[C@@H](CCCNC(=N)N)C(=O)NCC(=O)N[C@@H](CC(=O)O)C(=O)N[C@H](Cc2ccc(O)cc2)C(=O)N1)C(N)=O [technetium-99m labelled]	–	C57 mouse, female, B16/F1 melanoma, liver	intravenous, 0.037 MBq, 4 h	2.75 ± 0.51 %ID/g
CC(C)C[C@H](NC(=O)C[C@H](O)[C@H](CC(C)C)NC(=O)[C@H](Cc1c[nH]cn1)NC(=O)CNC(=O)[C@@H](NC(=O)[C@H](C)NC(=O)[C@H](Cc1c[nH]c2ccccc12)NC(=O)[C@H](CCC(N)=O)NC(=O)[C@@H](Cc1ccccc1)NC(=O)CCNC(=O)CCNC(=O)CN1CCN(CC(=O)O)CCN(CC(=O)O)CCN(CC(=O)O)CC1)C(C)C)C(N)=O [lutetium-177 labelled]	–	mouse PC-3 xenograft, tumour	intraperitoneal, 200 pmol, 24 h, without PA	4.5 ± 0.7 %ID/g
CCCC[C@H](NC(=O)CNC(=O)CNC(=O)CN1CCN(CC(=O)O)CCN(CC(=O)O)CC1)C(=O)N[C@H]1CC(=O)NCCCC[C@@H](C(N)=O)NC(=O)[C@H](Cc2c[nH]c3ccccc23)NC(=O)[C@H](CCCNC(=N)N)NC(=O)[C@@H](Cc2ccccc2)NC(=O)[C@H](Cc2c[nH]cn2)NC1=O [gallium-67 labelled]	–	female C57 mouse B16/F1 melanoma, normal organs except kidney	intravenous, 0.037 MBq, 24 h	< 1.62 %ID/g
O=C([O-])CN1CCN(CC(=O)[O-])CCN(CC(=O)NCCc2ccc3c(c2)C2C=CCC2C(c2cc4c(cc2Br)OCO4)N3)CCN(CC(=O)[O-])CC1.[111In+3] (stereo not drawn)	–	mouse, Hec50 endometrial tumour, heart	0.5 h post injection	5.87 ± 0.55 %ID/g
CCCC[C@H](NC(=O)CNC(=O)CNC(=O)CN1CCN(CC(=O)O)CCN(CC(=O)O)CC1)C(=O)N[C@H]1CC(=O)NCCCC[C@@H](C(N)=O)NC(=O)[C@H](Cc2c[nH]c3ccccc23)NC(=O)[C@H](CCCNC(=N)N)NC(=O)[C@@H](Cc2ccccc2)NC(=O)[C@H](Cc2c[nH]cn2)NC1=O [copper-64 labelled]	–	female C57 mouse, B16/F1 melanoma, lung	intravenous, 0.037 MBq, 24 h	0.37 ± 0.11 %ID/g
CCCC[C@H](NC(=O)CNC(=O)CNC(=O)CN1CCN(CC(=O)O)CCN(CC(=O)O)CCN(CC(=O)O)CC1)C(=O)N[C@H]1CC(=O)NCCCC[C@@H](C(N)=O)NC(=O)[C@H](Cc2c[nH]c3ccccc23)NC(=O)[C@H](CCCNC(=N)N)NC(=O)[C@@H](Cc2ccccc2)NC(=O)[C@H](Cc2c[nH]cn2)NC1=O [lead-203 labelled]	–	C57 mouse, bone	intravenous, 0.056 MBq, 2 h	1.15 ± 0.36 %ID/g
CC(C)[C@H](NC(=O)[C@@H]1CCCN1C(=O)[C@H](CCCNC(=N)N)NC(=O)[C@H](CS)NC(=O)[C@H](Cc1c[nH]c2ccccc12)NC(=O)[C@H](CCCNC(=N)N)NC(=O)[C@@H](Cc1ccccc1)NC(=O)[C@H](Cc1c[nH]cn1)NC(=O)[C@H](CCC(=O)O)NC(=O)[C@H](CS)NC(=O)[C@H](CS)NC(=O)[C@@H]1CC(=O)N[C@@H](CCCNC(=N)N)C(=O)NCC(=O)N[C@@H](CC(=O)O)C(=O)N[C@H](Cc2ccc(O)cc2)C(=O)N1)C(N)=O [technetium-99m labelled]	–	C57 mouse, female, B16/F1 melanoma, skin	intravenous, 0.037 MBq, 4 h	0.53 ± 0.07 %ID/g
CCCC[C@H](NC(=O)CNC(=O)CNC(=O)CN1CCN(CC(=O)O)CCN(CC(=O)O)CCN(CC(=O)O)CC1)C(=O)N[C@H]1CC(=O)NCCCC[C@@H](C(N)=O)NC(=O)[C@H](Cc2c[nH]c3ccccc23)NC(=O)[C@H](CCCNC(=N)N)NC(=O)[C@@H](Cc2ccccc2)NC(=O)[C@H](Cc2c[nH]cn2)NC1=O [copper-64 labelled]	–	female C57 mouse, B16/F1 melanoma, lung	intravenous, 0.037 MBq, 2 h	3.93 ± 0.64 %ID/g
COC(=O)c1ccc(-c2cn(Cc3cc(Cl)ccc3O[11CH3])nn2)cc1	PET/CT	C57BL/6 mouse, muscle	60 min	0.66 %ID/cc
CN1C(=O)[C@@H](Cc2ccc(O)c(I)c2)NC(=O)CNC(=O)[C@H](Cc2ccc3ccccc3c2)NC(=O)[C@H](CCCNC(=N)N)NC(=O)[C@H]1CCCNC(=O)c1ccc(CNC(=O)CN2CCN(CC(=O)O)CCN(CC(=O)O)CC2)cc1 [fluorine-18 labelled]	biodistribution	SCID mouse, Daudi lymphoma xenograft, blood	60 min	1.98 ± 0.31 %ID/g
CCCC[C@H](NC(=O)CN1CCC(NC(=O)CN2CCN(CC(=O)O)CCN(CC(=O)O)CCN(CC(=O)O)CC2)CC1)C(=O)N[C@H]1CC(=O)NCCCC[C@@H](C(N)=O)NC(=O)[C@H](Cc2c[nH]c3ccccc23)NC(=O)[C@H](CCCNC(=N)N)NC(=O)[C@@H](Cc2ccccc2)NC(=O)[C@H](Cc2c[nH]cn2)NC1=O [gallium-68 labelled]	biodistribution	C57BL/6J mouse male tumour-bearing, seminal vesicle	2 h post injection, unblocked	0.4 ± 0.1 %ID/g

Some of these lines once more:
Structure (SMILES)	assay	system	conditions	tissue uptake
O=C([O-])CN1CCN(CC(=O)[O-])CCN(CC(=O)NCCc2ccc3c(c2)C2C=CCC2C(c2cc4c(cc2Br)OCO4)N3)CCN(CC(=O)[O-])CC1.[111In+3] (stereo not drawn)	–	mouse, Hec50 endometrial tumour, heart	0.5 h post injection	5.87 ± 0.55 %ID/g
CCCC[C@H](NC(=O)CNC(=O)CNC(=O)CN1CCN(CC(=O)O)CCN(CC(=O)O)CC1)C(=O)N[C@H]1CC(=O)NCCCC[C@@H](C(N)=O)NC(=O)[C@H](Cc2c[nH]c3ccccc23)NC(=O)[C@H](CCCNC(=N)N)NC(=O)[C@@H](Cc2ccccc2)NC(=O)[C@H](Cc2c[nH]cn2)NC1=O [gallium-67 labelled]	–	female C57 mouse B16/F1 melanoma, normal organs except kidney	intravenous, 0.037 MBq, 24 h	< 1.62 %ID/g
